Assay results pooled from the literature.
Lines come from different studies, so protocols differ.

SMILES = O=C1CCc2ccc(OCCCCN3CCN(c4cccc(Cl)c4Cl)CC3)cc2N1; test = item: Sedation; test system = genotyped patients, CYP2D6 intermediate metabolizers; setting = dose not given, long-acting oral or depot; quantity = adverse event incidence; result = 5.7%
SMILES = FC(F)(F)c1ccc(CNc2ccc(Cc3c[nH]c4ncc(Cl)cc34)cn2)cn1; test = item: Fatigue; test system = patients with advanced solid tumours; setting = oral, dose not given, all grades, possibly related to drug; quantity = adverse event incidence; result = 59%
SMILES = Cc1c(C(=O)O)ccc2c3n(nc12)[C@@H]1[C@H](C3)N(CC2CC2)[C@@]2(C(=O)Nc3cc(Cl)ccc32)[C@H]1c1cccc(Cl)c1F; test = phase Ia trial, item: Dysgeusia; test system = cancer patients; setting = oral, dose not given, all patients grade ≥3; quantity = adverse event incidence; result = 0%
SMILES = CC(=O)O[C@H]1C(=O)[C@@]2(C)[C@H]([C@H](OC(=O)c3ccccc3)[C@]3(O)C[C@H](OC(=O)[C@H](O)[C@@H](NC(=O)c4ccccc4)c4ccccc4)C(C)=C1C3(C)C)[C@]1(OC(C)=O)CO[C@@H]1C[C@@H]2O; test = item: Diarrhoea; test system = patients with advanced solid tumours; setting = intravenous, dose not given, all grades, possibly related to drug; quantity = adverse event incidence; result = 37%
SMILES = CNC(=O)c1ccc(-c2cnc3ncc(Cc4ccc5ncccc5c4)n3n2)cc1F; test = phase 1 clinical trial, item: blood alkaline phosphatase increased; test system = other expansion cohort; setting = oral, 600 mg twice daily, grade 3 or 4; quantity = adverse event incidence; result = 0%
SMILES = CC(C)n1c(Nc2cccnc2)nc2cnc(Nc3ccc(N4CCN(C)CC4)cc3)nc21; test = item: Hypercalcemia; test system = healthy male subjects; setting = oral, 100 mg, together with: gemfibrozil; quantity = adverse event incidence; result = 7.1%
SMILES = NCCONC(=O)[C@@H]1CC[C@@H]2CN1C(=O)N2OS(=O)(=O)O; test = item: leading to temporary interruption; test system = healthy Chinese men; setting = intravenous, 1 g, treatment-related; quantity = adverse event incidence; result = 0%
SMILES = Cc1cc(Nc2ccc(S(F)(F)(F)(F)F)cc2)n2nc(C(C)(F)F)nc2n1; test system = Plasmodium vivax malaria patients; setting = oral, 800 mg; quantity = adverse event Thrombocytopenia; result = 0%
SMILES = Cc1c(Cl)c(C)[n+]([O-])c(Cl)c1-c1noc(-c2cc(O)c(O)c([N+](=O)[O-])c2)n1; test = item: Belching; test system = healthy Caucasian subjects; setting = oral, 50 mg, 20 days; quantity = adverse drug reaction incidence; result = 0%

For quick reference, copied from above:
SMILES = CC(C)n1c(Nc2cccnc2)nc2cnc(Nc3ccc(N4CCN(C)CC4)cc3)nc21; test = item: Hypercalcemia; test system = healthy male subjects; setting = oral, 100 mg, together with: gemfibrozil; quantity = adverse event incidence; result = 7.1%
